{"data": "Measured values gathered from unrelated publications", "note": "Protocols differ between the studies behind these lines. ± marks the error that the study gave."}
{"SMILES": "Cc1nc(=O)c2cc(CN(C)c3ccc(C(=O)Nc4n[nH]c5ccccc45)s3)ccc2[nH]1", "organism": "Mycobacterium tuberculosis", "assay": "microbial growth", "test system": "H37RV", "measurement": "MIC50", "value": "67.6 µM"}
{"SMILES": "O=C1/C(=N\\NC(=S)NN=Cc2cccs2)c2ccccc2N1Cc1ccccc1", "organism": "parainfluenza virus 3", "assay": "viral cytopathogenicity", "test system": "Vero", "measurement": "EC50", "value": "> 20 µM"}
{"SMILES": "OC12CC3CC(C1)CC(NCc1cnc(N4CCCCC4)nc1)(C3)C2", "organism": "influenza A virus", "assay": "viral replication, plaque reduction", "test system": "A/Switzerland/9715293/2013 H1N1", "measurement": "EC50", "value": "3.4 ± 0.8 µM"}
{"SMILES": "O=C(Cc1cccs1)N[C@@H]1C(=O)N2C(C(=O)O)=C(CSc3cccc[n+]3[O-])CS[C@H]12", "organism": "Mycobacterium tuberculosis", "test system": "H37Rv", "conditions": "non-replicating, added: clavulanate 25 µM", "measurement": "MBC", "value": "1.6 µM"}
{"SMILES": "CON(C(=O)c1cn(C)nc1C(F)F)C(C)Cc1c(Cl)cc(Cl)cc1Cl (stereo not shown)", "organism": "Phytophthora infestans", "conditions": "1.56 µg/mL", "measurement": "inhibition", "value": "88.1%"}
{"SMILES": "CCOC(=O)c1cnn2c1NN=C([N+](=O)[O-])C2(O)CC (stereo not shown)", "organism": "unidentified influenza virus", "assay": "viral replication", "test system": "MDCK, H1N1", "conditions": "48 h", "measurement": "IC50", "value": "336 µM"}
{"SMILES": "COc1ccc(NC(=O)CCc2nc(-c3ccc(N4CCCC4)cc3)no2)cc1OC", "organism": "Cedar virus", "assay": "viral replication, inhibitor", "test system": "Vero C1008", "conditions": "48 h", "measurement": "IC50", "value": "0.35 µM"}
{"SMILES": "COC(=O)CC1C2CCCN3CCCC(CN1C(=O)c1ccc(Cl)cc1)C23 (stereo not shown)", "organism": "Vesicular stomatitis virus", "assay": "viral entry", "conditions": "VSV G pseudotyped HIV", "measurement": "IC50", "value": "> 200 µM"}
{"SMILES": "C#CCN(Cc1ccc2[nH]c(C)nc(=O)c2c1)c1ccc(C(=O)N[C@@H](CCC(=O)O)C(=O)O)cc1", "organism": "Mycobacterium tuberculosis", "test system": "pptT knockdown without ATc", "measurement": "MIC90", "value": "> 100 µM"}
{"SMILES": "COc1ccc(NC(=O)CN(C)S(=O)(=O)c2cc(C)cc3cn[nH]c23)cc1Cl", "organism": "Mycobacterium tuberculosis", "test system": "intrabacterial", "conditions": "10 µM, 24 h", "scale": "baseline: untreated", "measurement": "pyruvate level", "value": "10.6 ± 0.16 fold"}
{"SMILES": "O=C(CCc1nc(-c2ccc(N3CCCC3)cc2)no1)NCCCN1CCOCC1", "organism": "Cedar virus", "assay": "viral replication", "test system": "Vero C1008", "scale": "baseline: CC50 over IC50", "measurement": "selectivity index", "value": "> 63"}
{"SMILES": "Cc1cc(Oc2nc(N3CC[C@@H](c4ccncc4)C3)ncc2F)[nH]n1", "organism": "Mycobacterium tuberculosis", "assay": "time-lapse microscopy", "test system": "Erdman tdTomato", "conditions": "0.6 µM", "measurement": "time to growth arrest", "value": "6 to 10 h"}
{"SMILES": "CN(C)S(=O)(=O)c1cc(O)c(O)c2c1CN(Cc1ccc(F)c(Cl)c1)C2=O", "organism": "HIV-1", "assay": "viral replication", "test system": "wild type, VSV-G pseudotyped", "measurement": "EC50", "value": "0.011 ± 0.003 µM"}
{"SMILES": "O=C(CCC1CCN(c2cc(NC3CC3)ncn2)CC1)NCc1ccc(F)cc1F", "organism": "Cedar virus", "assay": "viral replication", "test system": "Vero C1008", "scale": "baseline: CC50 over IC50", "measurement": "selectivity index", "value": "> 137"}
{"SMILES": "CCCCCCCCCC(=O)OCC1OC(n2cc(C)c(=O)[nH]c2=O)CC1N(C)C (stereo not shown)", "organism": "parainfluenza virus 3", "assay": "viral replication", "test system": "Vero", "measurement": "EC50", "value": "> 0.23 µM"}
{"SMILES": "O=C1c2c(ccc(O)c2O)CN1Cc1cccc(Cl)c1F", "organism": "HIV-1", "assay": "viral replication", "test system": "wild type, VSV-G pseudotyped", "measurement": "EC50", "value": "0.5 ± 0.04 µM"}
{"SMILES": "COc1c(CNC(=O)c2cc(C3CC3)nn2C)cccc1OC(F)(F)F", "organism": "Rhinovirus A", "assay": "viral replication", "test system": "H1-HeLa, HRV-16", "measurement": "EC50", "value": "< 0.02 µM"}
{"SMILES": "CC(C)N1CN(C2c3ccccc3CCc3ccccc32)n2cc(C(=O)O)c(=O)c(O)c2C1=O", "organism": "lymphocytic choriomeningitis virus", "test system": "Armstrong, culture supernatant", "conditions": "concentration not given, pretreatment", "measurement": "viral titre", "value": "increased"}
{"SMILES": "CC[C@H](C)[C@@H]1NC(=O)[C@H](CC(C)C)NC(=O)[C@@H](NC(=O)[C@H](CO)NC(=O)[C@H](CCCNC(=N)N)NC(=O)[C@@H](N)CO)CSSC[C@@H](C(=O)N[C@@H](CCC(N)=O)C(=O)N[C@@H](CCCNC(=N)N)C(=O)N[C@@H](CC(C)C)C(=O)N[C@@H](Cc2ccccc2)C(N)=O)NC(=O)[C@H](C(C)C)NC(=O)[C@H]([C@@H](C)CC)NC(=O)[C@H](CC(C)C)NC(=O)[C@@H](NC(=O)[C@H](CO)NC(=O)[C@H](CCCNC(=N)N)NC(=O)[C@@H](N)CO)CSSC[C@@H](C(=O)N[C@@H](CCC(N)=O)C(=O)N[C@@H](CCCNC(=N)N)C(=O)N[C@@H](CC(C)C)C(=O)N[C@@H](Cc2ccccc2)C(N)=O)NC(=O)[C@H](C(C)C)NC1=O", "organism": "Candidozyma auris", "assay": "broth microdilution", "test system": "DSM 21092", "measurement": "MIC", "value": "31 µg/mL"}
{"SMILES": "CC(=Nn1c(-c2ccccc2)nc2ccccc2c1=O)c1ccc(Cl)cc1", "organism": "human parainfluenza virus 3", "assay": "viral replication", "test system": "Vero", "measurement": "EC50", "value": "> 20 µg/mL"}
{"SMILES": "COc1ccc(-c2cc(=O)c3c(O)c(OC)c(O)cc3o2)cc1", "organism": "Mycobacterium bovis", "test system": "ATCC 27290", "measurement": "MIC", "value": "125 µg/mL"}
{"SMILES": "CSC(=NNC(=O)c1ccc([N+](=O)[O-])cc1)SC", "organism": "Mycobacterium", "test system": "Fortuitum", "measurement": "MIC", "value": "100 µg/mL"}
{"SMILES": "Clc1ccc(CN2CCCC3=CC4CC(CN5CCCCC45)C32)cc1Cl (stereo not shown)", "organism": "Vesicular stomatitis virus", "assay": "G pseudovirus entry", "test system": "Huh-7", "measurement": "EC50", "value": "15.9 µM"}
{"SMILES": "CCOC(=O)C1=C[C@@H](OC(CC)CC)[C@H](NC(C)=O)[C@@H](NCCCCCCCCC(=O)N[C@H](C(=O)N2C[C@@H](O)C[C@H]2C(=O)N[C@@H](C)c2ccc(-c3scnc3C)cc2)C(C)(C)C)C1", "organism": "Influenza A virus H1N1", "assay": "viral replication", "test system": "MDCK", "conditions": "concentration not given", "measurement": "activity", "value": "inactive"}
{"SMILES": "COC(=O)CC1C2CCCN3CCCC(CN1Cc1ccc(Cl)cc1)C23 (stereo not shown)", "organism": "Vesicular stomatitis virus", "assay": "viral entry", "conditions": "VSV G pseudotyped HIV", "measurement": "IC50", "value": "> 200 µM"}
{"SMILES": "CCOC(=O)c1nc2n(n1)C(O)(CC)C([N+](=O)[O-])=NN2 (stereo not shown)", "organism": "unidentified influenza virus", "assay": "viral replication", "test system": "MDCK, H1N1", "conditions": "48 h", "measurement": "IC50", "value": "> 1060 µM"}
{"SMILES": "Cc1nc(=O)c2cc(CN(C)c3cccc(C(=O)Nc4n[nH]c5ccccc45)c3)ccc2[nH]1", "organism": "Mycobacterium tuberculosis", "test system": "pptT knockdown without ATc", "measurement": "MIC50", "value": "97.6 µM"}
{"SMILES": "C=C(C)C1C2OC(=O)C1C1(O)CC3OC34C(=O)OC2C14C (stereo not shown)", "organism": "Drosophila melanogaster", "assay": "coated vial bioassay", "test system": "Canton-S wild type", "conditions": "concentration not given, adult flies", "measurement": "mortality", "value": "not toxic"}
